Experimental data of several laboratories.
Each line is one published result; not all experiments were run side by side. “And” joins repeats or separate records; there may be more than shown. Numbers after ± are the reported error.
HTR2B: 5-hydroxytryptamine receptor 2B (HTR2B, Homo sapiens, UniProt P41595)
Sequence of UniProt P41595 (whole entry, looked up): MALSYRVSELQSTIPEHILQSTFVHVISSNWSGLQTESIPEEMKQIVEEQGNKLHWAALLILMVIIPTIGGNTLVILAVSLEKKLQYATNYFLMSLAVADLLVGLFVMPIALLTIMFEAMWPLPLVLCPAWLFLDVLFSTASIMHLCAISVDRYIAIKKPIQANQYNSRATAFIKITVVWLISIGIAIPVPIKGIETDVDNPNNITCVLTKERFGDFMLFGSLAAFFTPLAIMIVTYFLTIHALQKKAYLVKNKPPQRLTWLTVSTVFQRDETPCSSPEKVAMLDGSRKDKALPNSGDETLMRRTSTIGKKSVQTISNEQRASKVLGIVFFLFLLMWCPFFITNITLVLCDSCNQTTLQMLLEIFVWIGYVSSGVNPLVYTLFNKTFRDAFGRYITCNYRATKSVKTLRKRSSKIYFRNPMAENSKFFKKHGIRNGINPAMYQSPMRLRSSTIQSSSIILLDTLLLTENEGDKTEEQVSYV
AMY2: Pancreatic alpha-amylase (AMY2, Sus scrofa, UniProt P00690)
Sequence of UniProt P00690 (whole entry, looked up): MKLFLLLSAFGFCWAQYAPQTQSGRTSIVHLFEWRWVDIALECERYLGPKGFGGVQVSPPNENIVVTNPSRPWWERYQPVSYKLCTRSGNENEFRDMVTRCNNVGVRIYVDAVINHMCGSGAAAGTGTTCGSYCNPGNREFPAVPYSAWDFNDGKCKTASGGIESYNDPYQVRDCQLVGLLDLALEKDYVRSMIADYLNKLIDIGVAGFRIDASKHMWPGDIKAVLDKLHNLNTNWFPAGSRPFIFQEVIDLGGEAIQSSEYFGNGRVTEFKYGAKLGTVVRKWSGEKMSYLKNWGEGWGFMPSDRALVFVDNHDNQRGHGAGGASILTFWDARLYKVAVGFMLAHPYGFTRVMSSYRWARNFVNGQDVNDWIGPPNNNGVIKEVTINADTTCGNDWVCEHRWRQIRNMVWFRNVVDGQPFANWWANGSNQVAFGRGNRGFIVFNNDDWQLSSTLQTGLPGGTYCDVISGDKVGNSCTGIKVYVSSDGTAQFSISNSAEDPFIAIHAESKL
HTR5A: 5-hydroxytryptamine receptor 5A (HTR5A, Homo sapiens, UniProt P47898)
Sequence of UniProt P47898 (whole entry, looked up): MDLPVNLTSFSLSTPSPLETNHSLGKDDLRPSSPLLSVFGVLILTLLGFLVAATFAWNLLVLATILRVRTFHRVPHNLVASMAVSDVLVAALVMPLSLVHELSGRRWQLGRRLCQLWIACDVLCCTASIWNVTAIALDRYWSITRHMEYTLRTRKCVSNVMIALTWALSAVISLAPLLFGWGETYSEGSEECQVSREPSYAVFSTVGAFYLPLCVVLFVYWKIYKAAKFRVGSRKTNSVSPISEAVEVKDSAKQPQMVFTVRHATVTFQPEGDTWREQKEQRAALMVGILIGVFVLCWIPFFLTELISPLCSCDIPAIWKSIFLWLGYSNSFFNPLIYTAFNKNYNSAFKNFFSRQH
HDAC11: Histone deacetylase 11 (HDAC11, Homo sapiens, UniProt Q96DB2)
Sequence of UniProt Q96DB2 (whole entry, looked up): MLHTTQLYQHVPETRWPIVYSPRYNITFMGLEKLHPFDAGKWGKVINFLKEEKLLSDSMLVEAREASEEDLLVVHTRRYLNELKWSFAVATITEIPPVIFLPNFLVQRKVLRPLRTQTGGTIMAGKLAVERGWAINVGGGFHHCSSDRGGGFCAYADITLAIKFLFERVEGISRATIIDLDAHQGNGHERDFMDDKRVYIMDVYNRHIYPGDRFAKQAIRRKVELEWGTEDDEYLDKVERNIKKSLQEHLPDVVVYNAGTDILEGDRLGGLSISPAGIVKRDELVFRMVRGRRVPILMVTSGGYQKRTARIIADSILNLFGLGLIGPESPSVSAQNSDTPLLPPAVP
KCNA3: Potassium voltage-gated channel subfamily A member 3 (KCNA3, Homo sapiens, UniProt P22001)
Sequence of UniProt P22001 (whole entry, looked up): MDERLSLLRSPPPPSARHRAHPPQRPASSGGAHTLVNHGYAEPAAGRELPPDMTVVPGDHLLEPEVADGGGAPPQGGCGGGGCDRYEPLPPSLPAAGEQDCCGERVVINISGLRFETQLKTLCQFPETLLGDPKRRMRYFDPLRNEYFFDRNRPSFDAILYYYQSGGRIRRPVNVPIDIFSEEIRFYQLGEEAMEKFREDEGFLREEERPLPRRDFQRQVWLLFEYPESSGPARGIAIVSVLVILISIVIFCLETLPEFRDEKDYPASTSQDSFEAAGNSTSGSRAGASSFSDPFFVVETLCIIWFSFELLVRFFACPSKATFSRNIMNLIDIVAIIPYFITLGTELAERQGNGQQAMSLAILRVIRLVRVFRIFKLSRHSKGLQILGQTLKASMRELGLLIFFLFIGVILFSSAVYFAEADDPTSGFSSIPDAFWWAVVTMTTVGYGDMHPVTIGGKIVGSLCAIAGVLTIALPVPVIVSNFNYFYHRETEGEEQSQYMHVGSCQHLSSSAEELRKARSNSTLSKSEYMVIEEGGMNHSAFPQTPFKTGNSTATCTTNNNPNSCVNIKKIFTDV
Sequence of UniProt Q96S37 (whole entry, looked up): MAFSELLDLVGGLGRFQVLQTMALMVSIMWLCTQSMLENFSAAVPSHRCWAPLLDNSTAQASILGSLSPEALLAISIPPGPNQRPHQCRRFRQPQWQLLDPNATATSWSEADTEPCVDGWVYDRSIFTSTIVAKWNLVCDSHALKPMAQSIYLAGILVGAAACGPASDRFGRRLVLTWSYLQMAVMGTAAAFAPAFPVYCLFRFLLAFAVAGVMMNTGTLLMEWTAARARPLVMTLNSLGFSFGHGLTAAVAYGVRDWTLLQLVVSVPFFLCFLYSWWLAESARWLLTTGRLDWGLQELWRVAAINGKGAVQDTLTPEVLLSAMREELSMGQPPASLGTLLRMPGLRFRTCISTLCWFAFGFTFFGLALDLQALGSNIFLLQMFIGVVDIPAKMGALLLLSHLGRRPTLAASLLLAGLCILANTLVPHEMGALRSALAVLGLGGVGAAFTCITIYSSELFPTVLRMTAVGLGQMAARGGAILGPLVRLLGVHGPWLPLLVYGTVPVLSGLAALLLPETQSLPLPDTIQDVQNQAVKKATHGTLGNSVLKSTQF
Sequence of UniProt O14744 (whole entry, looked up): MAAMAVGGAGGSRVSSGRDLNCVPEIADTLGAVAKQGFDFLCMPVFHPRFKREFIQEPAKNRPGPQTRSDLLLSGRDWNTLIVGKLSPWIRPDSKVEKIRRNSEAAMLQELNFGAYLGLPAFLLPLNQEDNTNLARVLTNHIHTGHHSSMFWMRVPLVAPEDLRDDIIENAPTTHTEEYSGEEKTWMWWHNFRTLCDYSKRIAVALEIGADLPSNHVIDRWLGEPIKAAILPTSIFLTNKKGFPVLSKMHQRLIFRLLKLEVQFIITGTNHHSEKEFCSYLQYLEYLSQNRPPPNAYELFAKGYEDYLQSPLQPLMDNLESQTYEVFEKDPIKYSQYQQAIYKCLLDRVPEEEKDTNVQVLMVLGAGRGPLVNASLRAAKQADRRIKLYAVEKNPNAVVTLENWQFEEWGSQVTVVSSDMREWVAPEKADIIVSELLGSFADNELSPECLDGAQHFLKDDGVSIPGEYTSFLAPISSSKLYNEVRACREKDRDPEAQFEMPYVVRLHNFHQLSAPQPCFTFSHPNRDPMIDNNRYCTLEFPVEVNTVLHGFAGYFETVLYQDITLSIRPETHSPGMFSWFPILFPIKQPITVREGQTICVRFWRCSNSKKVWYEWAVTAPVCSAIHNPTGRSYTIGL
Sequence of UniProt P41743 (whole entry, looked up): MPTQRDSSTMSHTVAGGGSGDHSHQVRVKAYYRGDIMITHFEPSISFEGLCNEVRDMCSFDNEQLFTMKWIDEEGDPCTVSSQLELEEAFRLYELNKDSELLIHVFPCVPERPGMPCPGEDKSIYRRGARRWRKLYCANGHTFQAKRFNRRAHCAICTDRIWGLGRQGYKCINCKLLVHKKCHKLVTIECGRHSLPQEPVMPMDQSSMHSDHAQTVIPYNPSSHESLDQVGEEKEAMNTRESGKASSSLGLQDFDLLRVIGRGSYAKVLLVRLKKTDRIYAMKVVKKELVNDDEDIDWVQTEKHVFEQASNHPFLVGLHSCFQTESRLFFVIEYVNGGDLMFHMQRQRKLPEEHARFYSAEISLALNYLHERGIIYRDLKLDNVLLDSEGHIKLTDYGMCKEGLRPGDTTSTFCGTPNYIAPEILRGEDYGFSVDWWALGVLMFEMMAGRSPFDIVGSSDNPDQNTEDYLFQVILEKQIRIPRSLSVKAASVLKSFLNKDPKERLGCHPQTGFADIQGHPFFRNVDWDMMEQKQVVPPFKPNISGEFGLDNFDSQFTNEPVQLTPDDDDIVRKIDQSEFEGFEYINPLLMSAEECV
Sequence of UniProt P21917 (whole entry, looked up): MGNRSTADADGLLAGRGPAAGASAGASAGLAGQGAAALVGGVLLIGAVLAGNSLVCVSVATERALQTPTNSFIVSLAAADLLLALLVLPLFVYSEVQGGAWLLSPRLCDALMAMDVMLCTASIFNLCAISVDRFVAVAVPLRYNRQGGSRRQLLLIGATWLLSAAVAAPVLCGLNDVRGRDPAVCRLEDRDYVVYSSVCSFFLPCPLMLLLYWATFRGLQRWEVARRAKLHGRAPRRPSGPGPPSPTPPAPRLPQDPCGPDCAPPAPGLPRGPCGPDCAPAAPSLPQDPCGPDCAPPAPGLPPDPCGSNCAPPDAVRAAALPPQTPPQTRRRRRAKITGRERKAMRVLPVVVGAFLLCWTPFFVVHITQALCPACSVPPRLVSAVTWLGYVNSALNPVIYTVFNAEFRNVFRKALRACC
Sequence of UniProt Q9UBS0 (whole entry, looked up): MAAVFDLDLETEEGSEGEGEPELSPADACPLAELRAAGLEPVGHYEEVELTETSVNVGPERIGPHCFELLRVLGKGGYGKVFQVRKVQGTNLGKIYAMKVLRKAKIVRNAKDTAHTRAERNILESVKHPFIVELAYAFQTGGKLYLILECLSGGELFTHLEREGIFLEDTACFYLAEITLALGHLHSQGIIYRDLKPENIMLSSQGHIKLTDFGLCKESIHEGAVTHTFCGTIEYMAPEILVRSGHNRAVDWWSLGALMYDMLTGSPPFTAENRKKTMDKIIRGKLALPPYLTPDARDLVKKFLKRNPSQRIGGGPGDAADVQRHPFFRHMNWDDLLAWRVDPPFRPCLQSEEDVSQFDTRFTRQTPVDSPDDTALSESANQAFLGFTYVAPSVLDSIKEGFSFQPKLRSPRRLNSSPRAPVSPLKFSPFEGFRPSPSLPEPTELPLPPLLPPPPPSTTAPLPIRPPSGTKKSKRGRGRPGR

| Structure (SMILES) | target | test | test system | conditions | inhibition |
| --- | --- | --- | --- | --- | --- |
| CCN(CC)c1ccc(C2Nc3ccc(C(=O)c4ccccc4)cc3NC3=C2C(=O)CC(C)(C)C3)cc1 (stereo not drawn) | sigma 2 receptor | binding | – | 10 µM | 12% |
| COc1ccc2c(c1)C(=O)N(CCCN1CCN(c3ccccc3OC)CC1)C2 | HTR2B | radioligand binding | – | concentration not given, with: [3H]LSD | 95.3% |
| O=C1N=C(N2CCCCN2)S/C1=C\c1ccc(F)cc1O | rat alpha1-adrenergic receptor | radioligand binding | rat cerebral cortex | 10 µM, with: [3H]prazosin | < 10% |
| C[C@H]1O[C@H](O[C@H]2[C@H](O)[C@@H](O)[C@@H](O[C@H]3[C@H](O)[C@@H](O)C(O)O[C@@H]3CO)O[C@@H]2CO)[C@H](O)[C@@H](O)[C@@H]1N[C@H]1C=C(CO)[C@@H](O)[C@H](O)[C@H]1O (stereo partly drawn) | AMY2 | enzyme activity, inhibitor | – | concentration not given | 98.6 ± 1.23% |
| O=C(Nc1cccc2c(=O)cc(-c3nnn[nH]3)oc12)c1ccc(OCCCCc2ccccc2)cc1 | Volume-regulated anion channel subunit LRRC8C, part LRRC8A IL1 chimera (LRRC8C, Homo sapiens, UniProt Q8TDW0, Y126F) | ion current, inhibitor, whole-cell patch clamp | HCT LRRC8-/- cells | 0.3 µM, +100 mV | 43.4% and 32.4% and 47.2% and 41.1% |
| Clc1cncc(OC[C@H]2CN(CCN3CCc4ccccc43)CCO2)c1 | HTR5A | radioligand binding | – | concentration not given, with: [3H]LSD | -16.6% |
| C[C@H]1O[C@H](O[C@H]2[C@H](O)[C@@H](O)[C@@H](O[C@H]3[C@H](O)[C@@H](O)C(O)O[C@@H]3CO)O[C@@H]2CO)[C@H](O)[C@@H](O)[C@@H]1N[C@H]1C=C(CO)[C@@H](O)[C@H](O)[C@H]1O (stereo partly drawn) | AMY2 | enzyme activity | – | concentration not given, with: CNP-G3 substrate | 88.1% and 87.7% |
| Cc1cc2c(cc1N1C(=O)c3cccc4c(CCCO)ccc(c34)C1=O)n(C)c(=O)n2C (racemic) | Protein polybromo-1, BD2 (PBRM1, Homo sapiens, UniProt Q86U86) | binding, BROMOscan binding | – | 100 nM | 74% |
| CCc1oc2ccccc2c1C(=O)c1cc(Br)c(O)c(Br)c1 | Solute carrier family 22 member 12 (SLC22A12, Homo sapiens, UniProt Q96S37) | urate uptake | HEK-293T | 0.5 µM, 10 min, 37 °C, with: [14C]urate 200 µM | 68.8% and 68.2% and 66.9% and 60.5% and 70.3% and 65.3% and 66.7% |
| Cc1ccc(OC[C@@H]2CN(CCN3CCc4ccccc43)CCO2)cn1 | HTR2B | radioligand binding | – | concentration not given, with: [3H]LSD | 27.9% |
| NC/C(=C\F)COc1cccc(Cn2c(=S)[nH]c(=O)c3[nH]cnc32)c1 | rat sodium channel site 2 | radioligand binding | – | 10 µM | < 50% |
| O=C1c2ccccc2CCN1CCCCN1CCN(c2ccccn2)CC1 | HTR2B | radioligand binding | – | concentration not given, with: [3H]LSD | 88.4% |
| Cc1cc(C)c(OS(=O)(=O)Oc2cccc(C(=O)NO)c2)c(C)c1 | HDAC11 | – | – | 10 µM | 13% |
| O=C(CN1CCO[C@H](COc2cccnc2)C1)N1CCc2ccccc21 | HTR5A | radioligand binding | – | concentration not given, with: [3H]LSD | 23% |
| O=C(/C=C/c1cccc(OS(=O)(=O)Oc2ccc(C(F)(F)F)cc2)c1)NO | HDAC11 | – | – | 10 µM | 35% |
| O=C(NO)c1ccc(CN2CCCCc3ccccc32)c(F)c1 | HTR5A | radioligand binding, PDSP radioligand binding | – | 10 µM | 1.54% |
| COc1cc(-c2cc(-c3ccc(N4CCNCC4)cc3)cnc2C)cc(OC)c1OC | Ribosomal protein S6 kinase beta-2 (RPS6KB2, Homo sapiens, UniProt Q9UBS0) | kinome profiling | – | 1 µM | 13% |

| Structure (SMILES) | target | test | test system | conditions | inhibition |
| --- | --- | --- | --- | --- | --- |
| COc1ccccc1N1CCN(CCCCN2CCc3ccccc3C2=O)CC1 | HTR2B | radioligand binding | – | concentration not given, with: [3H]LSD | 95.6% |
| CCN(c1cc(C#CCN2CCOCC2)cc(C(=O)NCc2c(C)cc(C)[nH]c2=O)c1C)[C@H]1CC[C@H](N(C)CCOC)CC1 | Protein arginine N-methyltransferase 5, with WDR77 (PRMT5, Homo sapiens, UniProt O14744) | methyltransferase activity | – | 1 µM | -4 ± 2% |
| C=C1CC[C@@H]2[C@](C)(CO)[C@H](O)CC[C@@]2(C)[C@@H]1C/C=C1/C(=O)OC[C@H]1O | Toll-like receptor 2 (TLR2, Homo sapiens, UniProt O60603) | SEAP reporter gene, antagonist | HEK-Blue hTLR2 | 10 µM, with: Pam3CSK4 | > 90% |
| COc1ccc(S(=O)(=O)ON=C2C=C(C)C(=O)C(C)=C2)cc1 | HDAC11 | enzyme activity, inhibitor | – | concentration not given | no inhibition |
| CN(c1ncccc1CNc1nc(Nc2ccc3c(c2)CC(=O)N3)ncc1C(F)(F)F)S(C)(=O)=O | PBK (human) | kinase activity | – | 1 µM | 34.5% |
| COc1ccc2c(c1)CN(CCCN1CCN(c3ccccc3OC)CC1)C2=O | D(4) dopamine receptor (DRD4, Homo sapiens, UniProt P21917) | radioligand binding | – | concentration not given, with: [3H]N-methylspiperone | 97.3% |
| CCCCCCCCCCCCCCNC(=O)/C=C/c1ccc(O)c(O)c1 | AMY2 | enzyme activity | – | 10 µM, with: α-glucosidase present | 20.8 ± 1.41% |
| O=C(NO)c1cccc(OS(=O)(=O)Oc2ccc(-c3ccc(C(F)(F)F)cc3)cc2)c1 | HDAC11 | – | – | 10 µM | 52% |
| O=c1cc(-c2ccccc2)oc2cc(O)cc(O)c12 | AMY2 | enzyme activity, inhibitor | – | 50 µM, with: CNP-G3 substrate | 22.6 ± 0.37% |
| CC[C@@H]1[C@H](F)C(=O)N[C@@H]1COc1nccc2cc(C(N)=O)c(OC)cc12 | Protein kinase C iota type (PRKCI, Homo sapiens, UniProt P41743) | ATP probe binding, KiNativ profiling, refers to: Lys2 probe site | THP-1 cell lysate | 0.2 mM | -0.0196% |
| CC(C)c1noc2ncc(C(=O)c3ccccc3O)cc12 | KCNA3 | ion current, inhibitor, whole-cell patch clamp | – | 10 µM | 10.3% and 12% and 15.6% and 13% and 3.21% |
| COc1cc2c(cc1OC)C(=O)C(CC1CCN(Cc3ccccc3)CC1)C2 (stereo not drawn) | HTR5A | radioligand binding | – | concentration not given, with: [3H]LSD | 17.3% |
| CCS(=O)(=O)c1nc(S(=O)(=O)c2ccccc2Cl)c(N2CCN(C)C(=O)[C@H]2C)s1 | HTR5A | – | – | 10 µM | 12.4% |
| COc1cc(C(=O)NS(=O)(=O)c2ccccc2C)ccc1Cc1cn(C)c2ccc(NC(=O)OC3CCCC3)cc12 | Volume-regulated anion channel subunit LRRC8C, part LRRC8A IL1 chimera (LRRC8C, Homo sapiens, UniProt Q8TDW0, L136K) | ion current, inhibitor, whole-cell patch clamp | HCT LRRC8-/- cells | 10 µM, +100 mV | 88.9% and 93.4% and 97% and 97.9% and 94.3% |
| Cc1ccc(C(=O)Nc2ccc3ccccc3c2)o1 | KCNA3 | ion current, whole-cell patch-clamp | – | 10 µM, hKv1.3 | 15.9% |
| Cc1cc(-c2ccnc3[nH]cc(F)c23)cc(F)c1[C@@]1(O)[C@H](C)CN(C2CCS(=O)(=O)CC2)C[C@@H]1C | AMPK alpha1 and alpha2 | ATP probe binding, KiNativ, refers to: Lys1 site | HEK293T cell lysate | 1 µM | 47.1% |

Excerpt of the above:
| Structure (SMILES) | target | test | test system | conditions | inhibition |
| --- | --- | --- | --- | --- | --- |
| CCN(CC)c1ccc(C2Nc3ccc(C(=O)c4ccccc4)cc3NC3=C2C(=O)CC(C)(C)C3)cc1 (stereo not drawn) | sigma 2 receptor | binding | – | 10 µM | 12% |
| COc1ccc2c(c1)C(=O)N(CCCN1CCN(c3ccccc3OC)CC1)C2 | HTR2B | radioligand binding | – | concentration not given, with: [3H]LSD | 95.3% |
